# Assay results of several laboratories.
# Each line is one published result; not all experiments were run side by side. Values joined by “and” are separate records of one study, mostly repeats; a detail may differ. ± marks the error that the study gave.
# Sequence of UniProt P49327 (whole entry, looked up): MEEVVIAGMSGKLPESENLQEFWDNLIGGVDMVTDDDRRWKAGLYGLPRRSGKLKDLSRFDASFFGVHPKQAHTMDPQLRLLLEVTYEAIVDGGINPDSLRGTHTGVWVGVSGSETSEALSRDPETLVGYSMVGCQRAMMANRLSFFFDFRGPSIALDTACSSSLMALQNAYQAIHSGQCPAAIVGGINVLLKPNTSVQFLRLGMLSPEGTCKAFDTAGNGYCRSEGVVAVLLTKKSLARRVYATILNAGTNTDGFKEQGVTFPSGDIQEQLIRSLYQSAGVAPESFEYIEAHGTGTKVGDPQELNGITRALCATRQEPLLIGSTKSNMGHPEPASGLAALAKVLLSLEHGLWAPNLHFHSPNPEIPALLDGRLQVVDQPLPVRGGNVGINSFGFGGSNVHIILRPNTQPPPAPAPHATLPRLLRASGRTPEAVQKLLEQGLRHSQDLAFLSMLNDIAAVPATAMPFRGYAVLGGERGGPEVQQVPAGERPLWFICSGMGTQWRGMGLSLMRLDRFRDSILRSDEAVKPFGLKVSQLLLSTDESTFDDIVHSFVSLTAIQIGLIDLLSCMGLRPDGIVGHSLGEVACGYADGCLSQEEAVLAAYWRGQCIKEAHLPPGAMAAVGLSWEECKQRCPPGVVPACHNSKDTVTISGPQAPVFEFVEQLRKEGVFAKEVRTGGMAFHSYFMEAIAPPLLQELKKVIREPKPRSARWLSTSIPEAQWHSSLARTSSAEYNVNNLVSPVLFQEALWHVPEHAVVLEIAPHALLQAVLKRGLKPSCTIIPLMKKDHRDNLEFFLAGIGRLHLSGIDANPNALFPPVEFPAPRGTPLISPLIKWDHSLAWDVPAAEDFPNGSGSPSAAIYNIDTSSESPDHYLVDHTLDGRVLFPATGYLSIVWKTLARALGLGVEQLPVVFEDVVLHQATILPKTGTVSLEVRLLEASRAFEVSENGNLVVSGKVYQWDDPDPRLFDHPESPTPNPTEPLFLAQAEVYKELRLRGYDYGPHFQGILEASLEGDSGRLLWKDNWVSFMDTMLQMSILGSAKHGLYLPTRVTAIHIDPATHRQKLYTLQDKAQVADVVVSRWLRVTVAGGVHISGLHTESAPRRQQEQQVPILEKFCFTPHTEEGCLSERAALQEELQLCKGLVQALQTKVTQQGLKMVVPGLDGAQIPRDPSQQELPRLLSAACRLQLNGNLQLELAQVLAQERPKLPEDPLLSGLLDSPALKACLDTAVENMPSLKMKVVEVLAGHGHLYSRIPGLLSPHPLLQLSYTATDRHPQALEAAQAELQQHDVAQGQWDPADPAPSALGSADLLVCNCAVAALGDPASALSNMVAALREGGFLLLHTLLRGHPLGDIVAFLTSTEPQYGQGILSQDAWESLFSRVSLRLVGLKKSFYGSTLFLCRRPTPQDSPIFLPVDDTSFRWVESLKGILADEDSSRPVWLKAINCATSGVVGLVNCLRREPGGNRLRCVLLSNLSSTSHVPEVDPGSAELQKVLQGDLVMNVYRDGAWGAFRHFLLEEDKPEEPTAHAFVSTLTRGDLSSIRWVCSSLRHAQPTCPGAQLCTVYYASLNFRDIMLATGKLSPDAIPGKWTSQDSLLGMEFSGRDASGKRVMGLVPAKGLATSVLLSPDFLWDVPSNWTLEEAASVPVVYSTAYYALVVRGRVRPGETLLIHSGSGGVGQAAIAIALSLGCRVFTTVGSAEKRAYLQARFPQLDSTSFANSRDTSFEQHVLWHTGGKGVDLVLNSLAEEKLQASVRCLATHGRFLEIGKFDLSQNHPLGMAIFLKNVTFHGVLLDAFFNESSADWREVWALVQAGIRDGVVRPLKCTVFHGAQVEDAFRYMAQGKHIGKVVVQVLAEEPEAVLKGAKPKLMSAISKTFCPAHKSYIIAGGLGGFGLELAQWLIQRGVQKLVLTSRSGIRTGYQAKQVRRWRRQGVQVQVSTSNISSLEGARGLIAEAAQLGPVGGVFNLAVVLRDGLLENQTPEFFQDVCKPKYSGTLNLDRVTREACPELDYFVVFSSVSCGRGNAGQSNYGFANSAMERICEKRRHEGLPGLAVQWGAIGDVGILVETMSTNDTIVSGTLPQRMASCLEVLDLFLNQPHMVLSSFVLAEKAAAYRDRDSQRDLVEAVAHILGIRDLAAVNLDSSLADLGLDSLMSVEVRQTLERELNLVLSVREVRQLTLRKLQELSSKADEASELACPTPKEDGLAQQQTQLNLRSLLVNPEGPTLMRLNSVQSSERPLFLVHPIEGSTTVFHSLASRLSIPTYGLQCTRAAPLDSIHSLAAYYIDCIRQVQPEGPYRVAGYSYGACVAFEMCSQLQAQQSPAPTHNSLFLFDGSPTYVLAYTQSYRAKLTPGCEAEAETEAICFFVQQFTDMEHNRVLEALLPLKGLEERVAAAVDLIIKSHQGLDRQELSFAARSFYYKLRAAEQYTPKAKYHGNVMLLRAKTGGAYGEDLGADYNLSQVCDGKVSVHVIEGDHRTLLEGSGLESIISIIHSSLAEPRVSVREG
SMILES,target or system,assay,test system,conditions,scale,quantity,result
Nc1nc2c(c(=O)[nH]1)C[C@@H](CCc1ccc(C(=O)N[C@@H](CCC(=O)O)C(=O)O)cc1)CN2,human coronavirus OC43,virus-induced cell killing,MRC-5,screen,,maximum inhibition,12.6%
CC[C@H](C)[C@@H]1NC(=O)[C@@H]2CCCN2C(=O)[C@H](CC(C)C)NC(=O)[C@H](CC(C)C)NC(=O)CNC(=O)[C@@H](NC(=O)[C@@H](NC(=O)[C@H](CC(=O)O)NC(=O)CNC(=O)[C@@H](NC(=O)[C@H](C)NC(=O)CNC(=O)[C@H](CCCCN)NC(=O)[C@H](CC(C)C)NC(=O)[C@H](CC(C)C)NC(=O)[C@H](CCCCN)NC(=O)CNC(=O)[C@@H](NC(=O)[C@@H](N)CC(C)C)C(C)C)C(C)C)C(C)C)CSSC[C@@H](C(=O)O)NC1=O,,"RNA-seq, measured: Maff mRNA","mouse traumatic brain injury, frontal cortex and hippocampus",dose not given,reference: TBI plus compound vs TBI,log2 fold change,-1.98
C[C@H]1CN(c2n[nH]c3nc(N[C@H]4CC[C@H](NS(=O)(=O)CCC(F)(F)F)CC4)ncc23)CCO1,"Fatty acid synthase (FASN, Homo sapiens, UniProt P49327)",biochemical,,,,IC50,≥ 20 µM
C=CC(=O)Nc1cc(Nc2ncc(Cl)c(Nc3ccccc3C(=O)C(=O)N(C)C)n2)c(OC)cc1N1CCN(C)CC1,,RECIST v1.1 best response,human EGFR T790M NSCLC,"oral, 25 mg/day, per-protocol set",,patients with complete response,0%
CN1CCN(S(=O)(=O)c2cc([N+](=O)[O-])ccc2N(CCOS(C)(=O)=O)CCOS(C)(=O)=O)CC1,,,"NSG mice, sample BI PDX","intraperitoneal, 25 mg/kg weekly x3",reference: treated over vehicle,EFS ratio (T/C),7.5
CCCCC1(CCCC)CN(c2ccccc2)c2cc(SC)c(OCC(=O)N[C@@H](C(=O)NCC(=O)O)c3ccccc3)cc2S(=O)(=O)C1,,measured: HDL cholesterol,"human, serum","5 mg once daily, day 1",,serum HDL-C,48.1 mg/dL
C[C@]1(CO)Cc2ncn(-c3ccc(C#N)c(Cl)c3)c2C(=O)O1,,"aldosterone synthesis, inhibitor, measured: sodium","healthy Japanese adults, urine","3 mg, 0-24 h at steady state, multiple rising dose",,urinary excretion,153 mmol
Cc1cn(-c2cc(NC(=O)c3ccc(C)c(Nc4nccc(-c5cccnc5)n4)c3)cc(C(F)(F)F)c2)cn1,,,human patients,"dose not given, 12 months vs baseline, unit not given",reference: placebo,ADAS-Cog maze errors change,0
C=CCN1CC[C@]23c4c5ccc(O)c4O[C@H]2C(=O)CC[C@@]3(O)[C@H]1C5,,,B6SJL mice,"4 mg/kg, compound alone",,tail-flick latency,no effect
O=c1[nH]cc(F)c(=O)[nH]1,human coronavirus OC43,virus-induced cell killing,MRC-5,screen,,maximum inhibition,24.9%
CCCCCCCCCCCCCCCC(=O)N[C@H]1C[C@@H](O)[C@@H](O)NC(=O)[C@@H]2[C@@H](O)[C@@H](C)CN2C(=O)[C@H]([C@@H](C)O)NC(=O)[C@H]([C@H](O)[C@@H](O)c2ccc(O)cc2)NC(=O)[C@@H]2C[C@@H](O)CN2C(=O)[C@H]([C@@H](C)O)NC1=O,,calcein leakage,DOPC/CHOL liposomes,"concentration not given, together with: 20 wt% PEG-8000",,fusion time constant,13 ± 6 min
O=C(O)/C=C/C(=O)O.Oc1cccc2[nH]cc(CCNCc3ccccc3)c12,,,C57BL/6J mice,"subcutaneous, 0.03 mg/kg",reference: pre-session baseline,body temperature change,0.2 ± 0.2 °C
[131I-].[Na+],,,hyperthyroidism patients,"185 MBq, 12 months, long-term follow-up",,hypothyroid patients,54.4%
C[C@H]1O[C@@H](O[C@H]2CC[C@@]3(C)[C@@H](CC[C@]4(C)[C@@H]3C=C[C@]35OC[C@@]6(CCC(C)(C)C[C@H]63)[C@@H](O)C[C@]54C)[C@]2(C)CO)[C@H](O)[C@@H](O[C@@H]2O[C@H](CO)[C@@H](O)[C@H](O)[C@H]2O)[C@H]1O,,,"mouse, no ethanol, AAV8-TBG-Null, liver","dose not given, high dose",,NAD+/NADH ratio,3.47 and 2.9 and 3.16 and 2.53
Cc1cccc(C)c1NC(=O)C1CCCCN1 (stereo not shown),,,"Sprague-Dawley rat, male, sciatic nerve",30 mM,,motor block duration,13 min and 10 min
C[C@]12CC[C@H](O)C[C@H]1CC[C@@H]1[C@@H]2CC[C@]2(C)[C@@H](c3ccc(=O)oc3)CC[C@]12O,,,female nude mouse LCC2 xenograft,"1.0 mg/kg, day 17, tamoxifen-resistant",,tumour volume,45 mm3 and 65.4 mm3 and 73.7 mm3 and 29.8 mm3 and 51.2 mm3 and 58.7 mm3 and 79.6 mm3
CC[C@H](C)C[C@H](C)CCCCCCCCC(=O)N[C@H]1C[C@@H](O)[C@@H](NCCN)NC(=O)[C@@H]2[C@@H](O)CCN2C(=O)[C@H]([C@H](O)CCN)NC(=O)[C@H]([C@H](O)[C@@H](O)c2ccc(O)cc2)NC(=O)[C@@H]2C[C@@H](O)CN2C(=O)[C@H]([C@@H](C)O)NC1=O,,calcein leakage,DOPC/DOPG/CHOL liposomes,"concentration not given, together with: 20 wt% PEG-8000",,fusion time constant,11 ± 3 min
S=C(NC1CCCCC1)N1CCC(c2cnc[nH]2)CC1,,"antinociception, hot plate test",rat,"intracerebroventricular, 5 min",,ED50,> 1700 nmol
O=C(O)C(F)(F)C(F)(F)C(F)(F)C(F)(F)C(F)(F)C(F)(F)C(F)(F)F,,"RNA-seq pathway analysis, measured: fatty acid β-oxidation genes",liver spheroids,"top non-cytotoxic, 10 d",,gene expression,increased
CC(=O)c1c(C)c2cnc(Nc3ccc(C4CCN(CCS(C)(=O)=O)CC4)cn3)nc2n(C2CCCC2)c1=O,,,"mouse MDA-MB-435S xenograft, tumour","oral, 100 mg/kg single dose",,time to peak pRb inhibition,30 min
Cc1cn([C@H]2O[C@@H](CO[P@@](=O)(N[C@@H](C)C(=O)OC(C)C)Oc3ccccc3)[C@H](O)[C@H]2F)c(=O)[nH]c1=O,,measured: detectable HBV DNA,adults with chronic hepatitis B,"25 or 50 mg, week 4, after treatment discontinuation",,virologic relapse,0%
COc1ccc(CCC2CCCC(CCc3ccc(OC)cc3)N2C[C@@H](O)CO)cc1.Cl (stereo in doubt),,,rat striatal slices,"concentration not given, basal, no methamphetamine",,dopamine release,no effect

# Repeated from above:
SMILES,target or system,assay,test system,conditions,scale,quantity,result
O=C(O)/C=C/C(=O)O.Oc1cccc2[nH]cc(CCNCc3ccccc3)c12,,,C57BL/6J mice,"subcutaneous, 0.03 mg/kg",reference: pre-session baseline,body temperature change,0.2 ± 0.2 °C
Cc1cccc(C)c1NC(=O)C1CCCCN1 (stereo not shown),,,"Sprague-Dawley rat, male, sciatic nerve",30 mM,,motor block duration,13 min and 10 min
CN1CCN(S(=O)(=O)c2cc([N+](=O)[O-])ccc2N(CCOS(C)(=O)=O)CCOS(C)(=O)=O)CC1,,,"NSG mice, sample BI PDX","intraperitoneal, 25 mg/kg weekly x3",reference: treated over vehicle,EFS ratio (T/C),7.5
